Measured values pooled from the literature.
± gives the spread as reported.
UniProt O60307, sequence (whole entry, looked up): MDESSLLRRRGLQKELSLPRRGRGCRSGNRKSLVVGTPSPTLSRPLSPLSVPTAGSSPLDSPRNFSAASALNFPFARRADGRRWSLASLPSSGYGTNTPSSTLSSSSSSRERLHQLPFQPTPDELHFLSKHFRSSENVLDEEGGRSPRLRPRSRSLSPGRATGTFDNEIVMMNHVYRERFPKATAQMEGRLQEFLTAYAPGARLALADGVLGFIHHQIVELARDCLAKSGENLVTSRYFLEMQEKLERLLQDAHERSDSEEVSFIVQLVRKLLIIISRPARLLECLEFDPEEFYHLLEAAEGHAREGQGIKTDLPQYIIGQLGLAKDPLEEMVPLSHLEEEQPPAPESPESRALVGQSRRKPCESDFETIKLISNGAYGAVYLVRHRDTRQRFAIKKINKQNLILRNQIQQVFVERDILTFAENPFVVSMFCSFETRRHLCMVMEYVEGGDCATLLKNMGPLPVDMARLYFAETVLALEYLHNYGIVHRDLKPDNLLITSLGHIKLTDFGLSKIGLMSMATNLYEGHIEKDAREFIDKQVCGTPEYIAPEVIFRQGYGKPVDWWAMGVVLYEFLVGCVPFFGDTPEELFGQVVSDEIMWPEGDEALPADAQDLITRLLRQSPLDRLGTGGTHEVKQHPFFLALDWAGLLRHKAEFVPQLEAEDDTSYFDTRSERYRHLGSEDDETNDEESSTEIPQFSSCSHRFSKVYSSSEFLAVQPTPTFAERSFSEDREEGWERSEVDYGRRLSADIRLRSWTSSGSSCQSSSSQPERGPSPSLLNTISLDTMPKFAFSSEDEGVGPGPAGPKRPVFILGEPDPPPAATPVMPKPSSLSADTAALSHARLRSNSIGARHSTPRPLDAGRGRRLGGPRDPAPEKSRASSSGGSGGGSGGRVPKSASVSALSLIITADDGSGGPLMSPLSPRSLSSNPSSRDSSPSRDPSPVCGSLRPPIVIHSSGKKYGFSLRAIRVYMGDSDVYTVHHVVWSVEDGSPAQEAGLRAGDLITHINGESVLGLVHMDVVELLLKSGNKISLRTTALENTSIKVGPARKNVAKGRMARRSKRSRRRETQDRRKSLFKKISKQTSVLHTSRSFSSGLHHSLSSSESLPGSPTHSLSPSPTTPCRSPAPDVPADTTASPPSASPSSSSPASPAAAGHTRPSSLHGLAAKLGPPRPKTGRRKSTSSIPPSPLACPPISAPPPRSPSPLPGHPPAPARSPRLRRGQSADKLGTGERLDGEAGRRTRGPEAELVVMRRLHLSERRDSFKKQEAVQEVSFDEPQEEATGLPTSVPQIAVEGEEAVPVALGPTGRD
UniProt Q5NUL3, sequence (whole entry, looked up): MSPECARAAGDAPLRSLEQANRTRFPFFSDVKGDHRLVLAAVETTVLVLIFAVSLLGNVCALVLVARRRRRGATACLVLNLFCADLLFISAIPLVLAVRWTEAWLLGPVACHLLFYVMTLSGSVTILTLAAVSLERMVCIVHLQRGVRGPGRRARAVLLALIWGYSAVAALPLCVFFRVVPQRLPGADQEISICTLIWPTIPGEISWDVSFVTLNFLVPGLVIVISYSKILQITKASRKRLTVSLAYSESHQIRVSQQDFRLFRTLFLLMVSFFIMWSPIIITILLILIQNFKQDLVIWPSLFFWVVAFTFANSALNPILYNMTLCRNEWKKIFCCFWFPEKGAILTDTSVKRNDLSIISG

Cn1cc(-c2ccc(-c3cncc(Cl)c3N3CCC4(CCNC4=O)CC3)cc2)cn1
log2 fold change (COLO 205; gene expression, microarray, item: CCL15 mRNA; concentration not given, 2 h; baseline: untreated cells): -3.27

NC1(C(=O)N[C@@H](CCO)c2ccc(Cl)cc2)CCN(c2nc[nH]c3nccc2-3)CC1
incidence of maculopapular rash (metastatic CRPC patients; 400 mg b.i.d., grade 3 to 4, treatment-related, together with: enzalutamide 160 mg daily): 14.3%

NC(=O)c1ccc(C(=O)Nc2cc(C3CC3)[nH]n2)cc1
logP (octanol/buffer; pH 11): 1.25

C=CC(=O)Nc1cc(Nc2nccc(Nc3cc(Cl)c(F)cc3C(C)(C)O)n2)c(OC)cc1N1CC[C@@H](N(C)C)C1
Css,max (human patients, plasma; oral, 300 mg daily, cycle 2 day 1, geometric mean): 521 ng/mL

CC[C@@H]1[C@H](F)C(=O)N[C@@H]1COc1nccc2cc(C(N)=O)c(OC)cc12
inhibition (MAST3 (Homo sapiens, UniProt O60307); ATP-site probe binding, ActivX profiling; THP-1 cell lysate; 0.01 mM, Lys2 site): 11.4%

CCO[C@H]1CCN(Cc2c(OC)cc(C)c3[nH]ccc23)[C@H](c2ccc(C(=O)O)cc2)C1
unbound AUC0–12 (human healthy controls, plasma; oral, 200 mg single dose, median): 2990 ng·h/mL

CCCCC(CC)CNc1cc(=O)[nH]c(=O)[nH]1 (racemic)
activation (FFAR4 (Homo sapiens, UniProt Q5NUL3); agonist, β-arrestin recruitment; CHO cells; 10 µM): -1%

CCc1cc(C(=O)NC)c2nccc(N3CCc4c(cc(Cn5ccnc5)cc4-c4cn(C)nc4C(F)(F)F)C3=O)c2c1
blood MPV change (Sprague Dawley rats; oral, 100 mg/kg twice daily, 7 days; baseline: vehicle): -2.79%

CCCCC/C=C\C/C=C\CCCCCCCC(=O)OCC(COC(=O)CCC(OCCCCCCCC)OCCCCCCCC)COC(=O)OCCCN(CC)CC (stereo not shown)
zeta potential (pH 7.5, formulated): 0 mV

Cc1cc(Nc2ccc(S(F)(F)(F)(F)F)cc2)n2nc(C(C)(F)F)nc2n1
adverse event sinus bradycardia (Plasmodium vivax malaria patients; oral, 800 mg): 0%

COc1cc(Nc2ncc3c(n2)-c2ccc(Cl)cc2C(c2c(F)cccc2OC)=NC3)ccc1C(=O)O
patients with adverse event (item: Sepsis, grade 4; cancer patients, phase 1/2; oral, dose not given, together with: pembrolizumab): 4%

C[C@@H](Oc1cc(-c2cnn(C3CCNCC3)c2)cnc1N)c1c(Cl)ccc(F)c1Cl
dose-normalised Cmax, median (patients, plasma; oral, dose not given, cycle 2 day 1, together with: avelumab): 1 ng/mL/mg

CNC(=O)c1cc(Oc2ccc(NC(=O)Nc3ccc(Cl)c(C(F)(F)F)c3)cc2)ccn1
Cmax (female wild-type DBA1/lacJ mice, plasma; oral, 10 mg/kg, no rifampin, geometric mean): 4240 ng/mL

Cc1c(C(=O)O)ccc2c3n(nc12)[C@@H]1[C@H](C3)N(CC2CC2)[C@@]2(C(=O)Nc3cc(Cl)ccc32)[C@H]1c1cccc(Cl)c1F
Cmax (female BALB/c nude mice, SJSA-1 xenograft, plasma; oral, 1 mg/kg twice daily, 2 doses, mean): 1370 nM

CN(C)CCCC1(c2ccc(F)cc2)OCc2cc(C#N)ccc21 (stereo not shown)
loss by adsorption (empty perfusion, no placenta; maternal circuit tubing; 5 µM, 360 min; baseline: initial amount): 42.7 ± 11.3%

CN1CCN(C(=O)CN(c2cc(C(F)(F)F)ccc2Cl)S(=O)(=O)c2ccccc2)CC1
logP (octanol/buffer; pH 11, known kinase inactives set): 2.97

CC(C)C[C@H](NC(=O)C[C@H](O)[C@H](CC(C)C)NC(=O)[C@H](Cc1c[nH]cn1)NC(=O)CNC(=O)[C@@H](NC(=O)[C@H](C)NC(=O)[C@H](Cc1c[nH]c2ccccc12)NC(=O)[C@H](CCC(N)=O)NC(=O)[C@@H](Cc1ccccc1)NC(=O)COCCOCCNC(=O)CCC(C(=O)O)N1CCN(CC(=O)O)CCN(CC(=O)O)CCN(CC(=O)O)CC1)C(C)C)C(N)=O (stereo partly shown) [lutetium-177 labelled]
tissue uptake (BALB/c nu/nu mice, skin; intravenous, 100 pmol, 1 h, together with: PA 300 µg): 0.29 ± 0.05 %ID/g

Cc1cc(-c2nccc3c2ccn3CC(=O)Nc2ccc(-c3cnccn3)cn2)ccn1
post-procedural erythema (human; 15 mg once daily, multiple ascending dose): 0%

CC(C)(C(=O)N1CCOc2c(C#N)cncc2C1)C(F)F
subjects with adverse event (item: nervous system disorders; human; oral, 15 mg twice daily, 14 days, multiple ascending dose): 12.5%

CNC(=O)c1ccc(-c2cnc3ncc(Cc4ccc5ncccc5c4)n3n2)cc1F
unbound Cmax (human severe hepatic impairment; oral, 200 mg single dose, adjusted geometric mean): 74.3 ng/mL

Cn1c(=O)c2[nH]cnc2n(C)c1=O
CSF concentration (human, both sexes, cerebrospinal fluid; dose not given, mean): 65.2 nM

CNCc1ccc(-c2[nH]c3cc(F)cc4c3c2CCNC4=O)cc1
abdominal distension incidence (patients; oral, 600 mg twice daily, grade 4): 0%

O=C(c1cccnc1-c1ccncc1)N1CCC(O)(Cc2ccccc2)CC1
AUC(0-inf)/dose (healthy Japanese adults, plasma; oral, 200 mg single dose): 3.6 ng·h/mL/mg

COc1cccc(NC(=O)CSc2nnnn2C)c1
logP (octanol/buffer; pH 11, known kinase inactives set): 1.48

N#CN1C[C@H](n2nc(-c3ccc(Oc4ccc(Cl)cn4)cc3)c(C(N)=O)c2N)CCC12CC2
AUC(0-inf), geometric mean (human, fed, plasma; oral, 600 mg, i=11): 19000 ng·h/mL

Excerpt of the above:
COc1cccc(NC(=O)CSc2nnnn2C)c1
logP (octanol/buffer; pH 11, known kinase inactives set): 1.48

NC1(C(=O)N[C@@H](CCO)c2ccc(Cl)cc2)CCN(c2nc[nH]c3nccc2-3)CC1
incidence of maculopapular rash (metastatic CRPC patients; 400 mg b.i.d., grade 3 to 4, treatment-related, together with: enzalutamide 160 mg daily): 14.3%
